Experimental data of several laboratories.
Lines come from different studies, so protocols differ. ± marks the error that the study gave.

insulin human  fold change (item: CNR1 mRNA; uninfected mouse, brain; i.p., dose not given; baseline: PBS): 1.14
C/C=C1\NC(=O)C(C(C)O)NC(=O)C(CCCN)NC(=O)C(CCO)NC(=O)CNC(=O)C(CCN)NC(=O)C(NC(=O)CC(O)CCCCCCCCCCC)COC(=O)C(C(O)CCl)NC(=O)C(C(O)C(=O)O)NC1=O (stereo not shown)  maximum fusion (calcein leakage; DOPC/DOPG/CHOL liposomes; concentration not given, together with: 20 wt% PEG-8000): 44 ± 6%
GVYYPDKVFR  frequency of responding donors (AIM; peptide, CD8+ T cells from PBMC, human donors; baseline: positive over tested donors): 25%
COc1ccc(C2=N[C@@H](C(=O)O)CS2)c(O)c1  uranium excretion (rat, bile duct-cannulated, bile and urine; subcutaneous, 150 µmol/kg single dose, 24 h, together with: uranium 1 mg/kg s.c.): 238 ± 40 µg/kg
COc1nc(NC(C)C)nc(NC(C)C)n1  activity call (agonist, qPCR in vivo, item: Shp and Bsep mRNA; Oryzias latipes; dose not given): active
RPQGLPNNTA  frequency of responding donors (AIM; peptide, CD8+ T cells from PBMC, human donors; HLA-B*07:02 restricted, unit not given; baseline: positive over tested donors): 33
O=C(O)CN(CCN(CC(=O)O)CC(=O)O)CCN(CC(=O)O)CC(=O)O  uranium excretion (bile duct-cannulated rats, bile and urine; oral, 300 µmol/kg, 24 h, together with: uranium 1 mg/kg s.c.): 212 ± 114 µg/kg
CS/C(S)=N/CCCC[S+](C)[O-] (racemic)  mRNA fold change (RT-PCR, item: Pon1; rat, colon; oral gavage, 200 mg/kg, 96 h, dosed for four days; baseline: vehicle): 0.313
LPYAK  transition enthalpy (DSC; peptide, 7/3 SOPC/cholesterol bilayers; 10 mol%, pH 7.40, SOPC chain melting transition): 5.86 kJ/mol
COCCOCCOCCOc1ccc(C2=N[C@@](C)(C(=O)O)CS2)c(O)c1  uranium excretion (rat, bile duct-cannulated, bile and urine; subcutaneous, 150 µmol/kg single dose, 24 h, together with: uranium 1 mg/kg s.c.): 482 ± 205 µg/kg
LPYGK  transition enthalpy (DSC; peptide, 6/4 SOPC/cholesterol bilayers; 15 mol%, pH 7.40, SOPC chain melting transition): 1.67 kJ/mol
WTFGAGAAL  response magnitude per positive donor (AIM; peptide, CD8+ T cells from PBMC, human donors; dose not given): 111
COCCOCCOCCOc1cccc(C2=N[C@@](C)(C(=O)O)CS2)c1O  uranium excretion (bile duct-cannulated rats, bile and urine; oral, 300 µmol/kg, 24 h, together with: uranium 1 mg/kg s.c.): 257 ± 111 µg/kg
YECDIPIGAGI  frequency of responding donors (AIM; peptide, CD8+ T cells from PBMC, human donors; baseline: positive over tested donors): 20%
COc1ccc(C2=N[C@@](C)(C(=O)O)CS2)c(O)c1  uranium excretion (bile duct-cannulated rats, bile and urine; oral, 300 µmol/kg, 24 h, together with: uranium 1 mg/kg s.c.): 265 ± 83 µg/kg
KPNELSRVL  frequency of responding donors (AIM; peptide, CD8+ T cells from PBMC, human donors; HLA-B*07:02 restricted, unit not given; baseline: positive over tested donors): 33
CC[C@H](C)[C@H](NC(=O)[C@H](Cc1ccc(O)cc1)NC(=O)[C@H](Cc1c[nH]c2ccccc12)NC(=O)[C@H](CC(C)C)NC(C)=O)C(=O)N[C@@H](CCCCN)C(N)=O  transition enthalpy (DSC; SOPC/cholesterol 6/4 bilayers; 15 mol%, pH 7.40): 2.09 kJ/mol
APSASAFFGM  frequency of responding donors (AIM; peptide, CD8+ T cells from PBMC, human donors; HLA-B*07:02 restricted, unit not given; baseline: positive over tested donors): 33
CCC(C)(c1ccc(O)cc1)c1ccc(O)cc1  activity call (antagonist, qPCR in vivo, item: Shp and Bsep mRNA; Oryzias latipes; dose not given): active

Repeated from above:
WTFGAGAAL  response magnitude per positive donor (AIM; peptide, CD8+ T cells from PBMC, human donors; dose not given): 111
COCCOCCOCCOc1cccc(C2=N[C@@](C)(C(=O)O)CS2)c1O  uranium excretion (bile duct-cannulated rats, bile and urine; oral, 300 µmol/kg, 24 h, together with: uranium 1 mg/kg s.c.): 257 ± 111 µg/kg
YECDIPIGAGI  frequency of responding donors (AIM; peptide, CD8+ T cells from PBMC, human donors; baseline: positive over tested donors): 20%
